# Experimental data collected from several papers.
# ± gives the spread as reported.
SMILES,test,system,conditions,quantity,value
CN1CC[C@@H](c2c(O)cc(O)c3c(=O)cc(-c4ccc(C(F)(F)F)cc4Cl)oc23)[C@@H]1CO,measured: urinary incontinence,AML,"oral, 200 mg, grade 3 to 4, intermittent dosing",patients with adverse event,10%
O=C1Nc2cc3[nH]nc(-c4ccncc4)c3cc2CN1Cc1ccccc1,CTCAE v4.03,advanced solid tumour patients,"intravenous, 6.4 mg/kg",patients with ≥1 TEAE,89%
CO[C@H]1C[C@@H]2CC[C@@H](C)[C@@](O)(O2)C(=O)C(=O)N2CCCC[C@H]2C(=O)O[C@H]([C@H](C)C[C@@H]2CC[C@@H](OC(=O)NCCOCCOCCOCCOCCOCCOCCOCCOCCC(=O)N3CCc4cc(Cn5nc(-c6ccc7oc(N)nc7c6)c6c(N)ncnc65)ccc4C3)[C@H](OC)C2)C[C@@H](O)[C@H](C)/C=C(\C)[C@@H](O)[C@@H](OC)C(=O)[C@H](C)C[C@H](C)/C=C/C=C/C=C/1C,,patients with advanced solid tumours,"intravenous, 6 mg weekly, any grade",AE leading to discontinuation,8.3%
NC(=O)[C@H]1CCN(c2ncnc(N)c2F)C[C@@H]1N1CCC[C@@H](Nc2cc(Cl)cc(C(F)(F)F)c2)C1=O,,B-cell malignancy patients,"oral, 246 mg twice daily, dose",grade ≥3 bilirubin increase,20%
N#C[C@@]1(n2ccc(N)nc2=O)O[C@H](CO)[C@@H](O)[C@H]1O,,CD-1 mouse,"oral, 30 mg/kg",clearance,15.5 mL/min/kg
O=S(=O)(Nc1ccccc1)c1ccc(NC(=S)Nc2ccccc2)cc1,measured: BUN,"male mouse, blood","oral, 5 mg/kg daily, 14 days",blood chemistry level,18.8 mg/dL
C[C@H]1COCCN1c1nc(NCc2cccnc2C(F)(F)F)c2cccnc2n1,,BALB/c mice,"intravenous, 5 mg/kg",AUC(0-24 h),10700 ng·h/mL
CC[C@H](C)[C@H](NC(=O)[C@H](Cc1ccccc1)NC(=O)[C@H](CCC(=O)O)NC(=O)[C@H](CCCNC(=N)N)NC(=O)[C@H](C)NC(=O)[C@H](C)NC(=O)[C@H](CCC(N)=O)NC(=O)[C@H](CCC(=O)O)NC(=O)[C@H](CCC(=O)O)NC(=O)[C@H](CC(C)C)NC(=O)[C@H](Cc1ccc(O)cc1)NC(=O)[C@H](CO)NC(=O)[C@H](CO)NC(=O)[C@@H](NC(=O)[C@H](CC(=O)O)NC(=O)[C@H](CO)NC(=O)[C@@H](NC(=O)[C@H](Cc1ccccc1)NC(=O)[C@@H](NC(=O)CNC(=O)[C@H](CCC(=O)O)NC(=O)[C@H](C)NC(=O)CCc1cnc[nH]1)[C@@H](C)O)[C@@H](C)O)C(C)C)C(=O)N[C@@H](C)C(=O)N[C@@H](Cc1c[nH]c2ccccc12)C(=O)N[C@@H](CC(C)C)C(=O)N[C@H](C(=O)N[C@@H](CCCNC(=N)N)C(=O)NCC(=O)N[C@@H](CCCNC(=N)N)C(=O)N[C@@H](CCCCNC(=O)COCCOCCNC(=O)COCCOCCNC(=O)CC[C@H](NC(=O)CCCCCCCCCCCCCCCCC(=O)O)C(=O)O)C(=O)NCC(=O)NCC(=O)N[C@@H](CO)C(=O)N[C@@H](CCSC)C(=O)N[C@H](C(=O)N[C@@H](CCCCNc1c(NCCCCCN(O)C(=O)CCC(=O)NCCCCCN(O)C(=O)CCC(=O)NCCCCCN(O)C(C)=O)c(=O)c1=O)C(=O)O)C(C)C)C(C)C [zirconium-89 labelled],ex vivo gamma counting,"male Sprague-Dawley rats, spleen","intravenous, 1 nmol, 72 h, mean of 3 animals",tissue uptake,0.276 %ID/g
C[C@@H]1OC(=O)NN=C1c1ccc(-c2ccc(F)cc2)c(C(F)(F)F)c1,"phase I trial, measured: Nausea worst grade 1",human patients,10 mg loading then 0.5 mg daily,patients with adverse event,100%
CCN1[C@@H](C(=O)NC23CCC(C(=O)O)(CC2)CC3)[C@H](c2cccc(Cl)c2F)[C@]2(C(=O)Nc3cc(Cl)ccc32)C12CCCCC2,,patients with advanced solid tumours,"oral, 200 mg",Neutropenia incidence,0%
CCCSc1ccc2nc(NC(=O)OC)[nH]c2c1,thermogravimetric analysis,,"concentration not given, nitrogen, 10 °C/min",5% weight loss temperature,201 °C
C[C@]1(CO)Cc2ncn(-c3ccc(C#N)c(Cl)c3)c2C(=O)O1,,healthy Chinese subjects,"dose not given, single dose, all doses",subjects with TEAE,25%
CC1(C)C(/C=C(\Cl)C(F)(F)F)C1C(=O)OC(C#N)c1cccc(Oc2ccccc2)c1 (centres unmarked),measured: CYP2C19,"human, age 1 year",,enzyme contribution to clearance,0.43%
CC(C)C[C@H](NC(=O)[C@H](CCCCN)NC(=O)OCC1c2ccccc2-c2ccccc21)C(=O)N[C@H](C(=O)N[C@@H](Cc1ccccc1)C(=O)N[C@@H](Cc1ccccc1)C(=O)N[C@@H](CCCCN)C(=O)NCC(=O)N[C@@H](Cc1ccccc1)C(=O)N[C@@H](C)C(=O)N[C@@H](Cc1c[nH]c2ccccc12)C(=O)N[C@@H](CC(N)=O)C(=O)N[C@H](C(=O)N[C@H]1CSSC[C@@H](C(=O)N[C@@H](Cc2c[nH]cn2)C(=O)N[C@@H](CCCNC(=N)N)C(=O)N[C@@H](CCCNC(=N)N)C(=O)N[C@@H](C)C(=O)N[C@@H](CC(N)=O)C(N)=O)NC(=O)[C@H](C(C)C)NC(=O)[C@H](CCCNC(=N)N)NC(=O)[C@H](C(C)C)NC(=O)CNC(=O)[C@H](CC(N)=O)NC(=O)[C@H](CCCNC(=N)N)NC(=O)[C@H](Cc2ccc(O)cc2)NC(=O)[C@H](C(C)C)NC1=O)C(C)C)C(C)C,,"ICR mice, serum","intraperitoneal, 10 mg/kg, day 5",phosphorus,3.27 ± 0.08 mmol/L

# A few entries again:
SMILES,test,system,conditions,quantity,value
CN1CC[C@@H](c2c(O)cc(O)c3c(=O)cc(-c4ccc(C(F)(F)F)cc4Cl)oc23)[C@@H]1CO,measured: urinary incontinence,AML,"oral, 200 mg, grade 3 to 4, intermittent dosing",patients with adverse event,10%
CO[C@H]1C[C@@H]2CC[C@@H](C)[C@@](O)(O2)C(=O)C(=O)N2CCCC[C@H]2C(=O)O[C@H]([C@H](C)C[C@@H]2CC[C@@H](OC(=O)NCCOCCOCCOCCOCCOCCOCCOCCOCCC(=O)N3CCc4cc(Cn5nc(-c6ccc7oc(N)nc7c6)c6c(N)ncnc65)ccc4C3)[C@H](OC)C2)C[C@@H](O)[C@H](C)/C=C(\C)[C@@H](O)[C@@H](OC)C(=O)[C@H](C)C[C@H](C)/C=C/C=C/C=C/1C,,patients with advanced solid tumours,"intravenous, 6 mg weekly, any grade",AE leading to discontinuation,8.3%
